Measurements pooled from the literature.
Compare with care: the assays were run in different laboratories. ± gives the spread as reported.
Cell line: A2780

[Fe+2].c1cc[cH-]c1.c1cc[cH-]c1 — IC50 (viability, MTT; 48 h): > 100 µM
CCn1cc(-c2cc(Cn3ccnc3)cc3c2CCN([C@H](c2cc(OC)ccn2)C2CC2)C3=O)c(C(F)(F)F)n1 — EC50 (cell growth, inhibitor; 120 h): 0.143 µM
COc1ccccc1CNC[C@@](C)(O)[C@@H]1CC[C@@H](C)C[C@H]1OCc1ccccc1 — IC50 (cell growth, inhibitor, MTT; 72 h): 7.39 µM
Cc1[nH]c2ccccc2c1CCNCc1ccc(/C=C/C(=O)NO)cc1 — late apoptotic cells (annexin V/PI flow cytometry; concentration not given, 48 h; reference: control subtracted): 2.6 ± 0.6%
CCNNC(=O)c1ccc(CN(CC(=O)NCc2ccccc2)C(=O)c2ccc(N(C)C)cc2)cc1 — apoptotic cells (flow cytometry, measured: subG1 nuclei; concentration not given): ~60%
C[C@@H]1CC[C@@H]([C@@](O)(CNCc2ccccc2)COCc2ccccc2)[C@H](OCc2ccccc2)C1 — IC50 (cell growth, inhibitor, MTT; 72 h): 3.26 µM
CC(C)(C)c1nc(-c2cccc(NS(=O)(=O)c3c(F)cccc3F)c2F)c(-c2ccnc(N)n2)s1 — early apoptotic cells (annexin V/PI flow cytometry; concentration not given, 48 h; reference: control subtracted): 32.8 ± 5.5%
COc1cccc2c1C(=O)c1c(O)c3c(c(O)c1C2=O)C[C@@](O)(C(=O)CO)C[C@@H]3O[C@H]1C[C@H](N)[C@H](O)[C@H](C)O1 — IC50 (cytotoxicity, WST-1; 72 h): 0.01 µM

Repeated from above:
C[C@@H]1CC[C@@H]([C@@](O)(CNCc2ccccc2)COCc2ccccc2)[C@H](OCc2ccccc2)C1 — IC50 (cell growth, inhibitor, MTT; 72 h): 3.26 µM
